Published values gathered from unrelated publications.
Lines come from different studies, so protocols differ. Numbers after ± are the reported error.

CC1(C)C(=O)N(c2ccc(C#N)c(C(F)(F)F)c2)C(=S)N1c1ccc(C(N)=O)c(F)c1  Cmax (human, male, plasma; oral, 160 mg, soft capsule): 0.432 ± 0.125 µg/mL
CCCCCCCCCCCCCC(=O)N[C@H](CCN)C(=O)N[C@@H]1C(=O)N[C@@H](CCN)C(=O)N[C@@H](CC(C)C)C(=O)N[C@@H](CCN)C(=O)N[C@H](Cc2ccccc2)C(=O)N[C@@H](CC(C)C)C(=O)N[C@@H](CCN)C(=O)N[C@H](CCN)C(=O)N[C@@H](C(C)C)C(=O)N[C@@H](CC(=O)O)C(=O)O[C@@H]1C  Cmax (rat, plasma; subcutaneous, 10 mg/kg): 5.2 µg/mL
CN[C@H](CC(C)C)C(=O)N[C@H]1C(=O)N[C@@H](CC(N)=O)C(=O)N[C@H]2C(=O)N[C@H]3C(=O)N[C@H](C(=O)N[C@H](C(=O)O)c4cc(O)cc(O)c4-c4cc3ccc4O)[C@H](O)c3ccc(c(Cl)c3)Oc3cc2cc(c3O[C@@H]2O[C@H](CO)[C@@H](O)[C@H](O)[C@H]2O[C@H]2C[C@](C)(NCc3ccc(-c4ccc(Cl)cc4)cc3)[C@H](O)[C@H](C)O2)Oc2ccc(cc2Cl)[C@H]1O  Cmax (mouse, plasma; intravenous, 10 mg/kg): 65 µg/mL
CCCCCCCCCCCCCCCC(=O)N[C@@H](CCC(=O)NCCOCCOCCC(=O)NCCOCCOCCC(=O)NCCCC[C@H](NC(=O)[C@H](CC(=O)O)NC(=O)[C@H](CC(C)C)NC(=O)[C@H](Cc1ccc(O)cc1)NC(=O)[C@H](CCCCN)NC(=O)[C@H](CO)NC(=O)[C@H](Cc1ccc(O)cc1)NC(=O)[C@H](CC(=O)O)NC(=O)[C@H](CO)NC(=O)[C@@H](NC(=O)[C@H](Cc1ccccc1)NC(=O)[C@@H](NC(=O)CNC(=O)[C@H](CCC(N)=O)NC(=O)[C@@H](CO)NC(=O)[C@@H](N)Cc1c[nH]cn1)[C@@H](C)O)[C@@H](C)O)C(=O)N[C@@H](CCCNC(=N)N)C(=O)N[C@@H](CCCNC(=N)N)C(=O)N[C@@H](C)C(=O)N[C@@H](CCC(N)=O)C(=O)N[C@@H](CC(=O)O)C(=O)N[C@@H](Cc1ccccc1)C(=O)N[C@H](C(=O)N[C@@H](CCC(N)=O)C(=O)N[C@@H](Cc1c[nH]c2ccccc12)C(=O)N[C@@H](CC(C)C)C(=O)N[C@@H](CC(C)C)C(=O)N[C@@H](CC(N)=O)C(=O)N[C@H](C(=O)NCC(=O)NCC(=O)N1CCC[C@H]1C(=O)N[C@@H](CO)C(=O)N[C@@H](CO)C(=O)NCC(=O)N[C@@H](C)C(=O)N1CCC[C@H]1C(=O)N1CCC[C@H]1C(=O)N1CCC[C@H]1C(=O)N[C@@H](CO)C(N)=O)[C@@H](C)O)C(C)C)C(=O)O  Cmax (rhesus monkey, female, plasma; subcutaneous, 60 µg/kg, day 1, toxicokinetics, mean): 0.117 µg/mL
C/C(=N\OCCCN1CCCCC1)c1ccc(C(F)(F)F)cc1  Cmax (mouse, plasma; oral, 75 mg/kg twice daily, day 1): 1.84 ± 0.924 µg/mL
CCCCCn1ccc(C(=O)NC(C)(C)c2ccc(CNC(C)=O)cc2)n1  Cmax (mouse, plasma; intraperitoneal, 2.5 mg/kg): 0.15 µg/mL
Cn1nc(NS(C)(=O)=O)c2c(Cl)ccc(-n3c([C@H](Cc4cc(F)cc(F)c4)NC(=O)Cn4nc(C(F)F)c5c4C(F)(F)[C@@H]4C[C@H]54)nc4nc(OCCC(F)(F)F)ccc4c3=O)c21  Cmax (human, plasma; oral, 200 mg single dose, tablet, geometric mean): 0.0619 µg/mL
CC(C)[C@H]1NC(=O)[C@H](Cc2ccccc2)NC(=O)[C@@H](C(C)C)NC(=O)[C@@H](C)NC(=O)[C@H](CO)NC(=O)[C@@H](Cc2c(-c3ccc(-c4ccc5ccccc5c4)cc3)[nH]c3ccccc23)NC(=O)[C@@H](CO)NC1=O  Cmax (female Sprague-Dawley rat, plasma; intravenous, 1 mg/kg, single dose): 32 µg/mL
CC1(C)C(=O)N(c2ccc(C#N)c(C(F)(F)F)c2)C(=S)N1c1ccc(C(=O)O)c(F)c1  Cmax (human, male, plasma; oral, 80 mg, soft capsule): 0.0651 ± 0.0169 µg/mL
O=C1NC2(CC2)COc2ncc(F)cc2[C@H]2COCCN2c2ccn3ncc1c3n2  creatinine (Sprague-Dawley rat, female, serum; oral, 2.5 mg/kg/day, 4 weeks daily, end of recovery period): 32 ± 2.9 µmol/L
NC1CCN(C(=O)Oc2ccc(C3CCCC4(C3)OOC3(O4)C4CC5CC(C4)CC3C5)cc2)CC1 (racemic)  Cmax (male mouse, plasma; oral, 50 mg/kg, single dose): 1.19 µg/mL
CN1CCCCC1C(=O)NC(Cc1ccc(-c2ccccc2)cc1)B(O)O (stereo not shown)  Cmax (rat, plasma; oral, 1 mg/kg): 0.282 µM
COc1nc(CC=C(C)CC=CC(C)=CC(C)C(OC2OC(CO)C(O)C(O)C2O)C(C)=CCO)c(C)c(O)c1OC (stereo not shown)  Cmax (male C57BL/6 mouse, plasma; intravenous, 2 mg/kg): 1.87 µg/mL
